Published values of several laboratories.
A part holds a random share of what one study measured. Substitutions count along the parent as printed.

Set 1 — read-out: binding; method: phage display NGS; form: peptide; baseline: input library; endpoint: minimum log2 enrichment ratio
Target: UDP-N-acetylglucosamine--peptide N-acetylglucosaminyltransferase 110 kDa subunit (OGT, Homo sapiens, UniProt O15294)
Sequence of UniProt O15294 (whole entry, looked up): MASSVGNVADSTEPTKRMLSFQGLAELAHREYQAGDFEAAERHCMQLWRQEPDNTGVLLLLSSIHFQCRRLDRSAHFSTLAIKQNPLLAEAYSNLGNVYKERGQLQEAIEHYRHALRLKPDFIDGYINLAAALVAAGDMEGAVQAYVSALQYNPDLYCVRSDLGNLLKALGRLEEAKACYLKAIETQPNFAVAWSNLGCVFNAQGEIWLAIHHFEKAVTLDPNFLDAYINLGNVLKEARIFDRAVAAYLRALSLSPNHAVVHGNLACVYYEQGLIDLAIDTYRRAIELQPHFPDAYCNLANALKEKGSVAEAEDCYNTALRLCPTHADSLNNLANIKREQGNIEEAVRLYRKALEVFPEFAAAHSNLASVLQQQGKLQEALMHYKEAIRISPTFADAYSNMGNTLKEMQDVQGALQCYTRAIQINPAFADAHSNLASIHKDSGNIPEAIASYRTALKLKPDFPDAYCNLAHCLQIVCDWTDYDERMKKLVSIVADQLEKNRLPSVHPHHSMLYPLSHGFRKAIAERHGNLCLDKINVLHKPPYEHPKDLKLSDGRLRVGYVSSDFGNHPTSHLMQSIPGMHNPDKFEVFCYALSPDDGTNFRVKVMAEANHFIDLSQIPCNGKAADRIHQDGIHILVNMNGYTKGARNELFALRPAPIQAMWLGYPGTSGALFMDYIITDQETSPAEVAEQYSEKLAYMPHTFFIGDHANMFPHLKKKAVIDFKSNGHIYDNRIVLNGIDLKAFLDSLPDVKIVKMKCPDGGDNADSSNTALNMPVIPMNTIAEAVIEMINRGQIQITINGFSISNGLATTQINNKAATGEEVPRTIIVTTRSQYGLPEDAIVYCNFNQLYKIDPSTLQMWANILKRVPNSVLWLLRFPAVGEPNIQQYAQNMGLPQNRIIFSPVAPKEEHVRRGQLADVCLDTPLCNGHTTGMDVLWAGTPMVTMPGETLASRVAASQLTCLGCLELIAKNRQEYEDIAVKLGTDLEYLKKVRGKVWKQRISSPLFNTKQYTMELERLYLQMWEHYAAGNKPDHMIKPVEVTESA
HPMIDRHKHTPWNKH: 2.08
SWQPYQHHIWRMTYP: 2.31
NFMPFYPITITAIES: 3.83
YATPWTPQYQIMYN: 4.47
WTDHGGNIIHTHHH: 5.78
DSMLFTPLYQITVPH: 5.41
VTNYHPSYHHLSHYA: 2.02
YYLPAYQIAPKYVQD: 2.89
VPWQHVHTAHNRWHS: 1.56
MLETTPHHHQRPYAI: 1.46
SVMHHHHSATTYLG: 2.8
TMYEPMYQIKVIAHG: 4.27
WTGIHHPWSVPHGRP: 2.89
HQHKLTPMFKHHGAM: 1.37
HEYPATHYHQQRKHY: 1.6
YERDYQHFMPQYQIM: 1.25
SMVHGVHTIEHHHYQ: 2.01
EPYIGPHHMHHYEHS: 5.95
DHSHFHERMYVRHDI: 1.15
TYHFPHTHNHVQQHH: 3.9
TIEDHVHHHAHRLDR: 2.28
HLSQDHHPKRQKHTH: 2.3
HLMHHRLEPDHAHQV: 3.82
HFTREPPTHHHKLQE: 3.13
HWHSAAIDPHRHRGE: 2.34

Set 2 — target: inorganic phosphate, free oxyanion; method: microfluidic competitive inhibition; sample: in vitro, cell-free expressed; concentration: not given; reading: lower = stronger binding; endpoint: phosphate dissociation constant
Setting: derived from inhibition constants, unchanged parent 615000 nM
Starting sequence: PafA, mature enzyme, eGFP fusion (Elizabethkingia meningoseptica, UniProt Q9KJX5); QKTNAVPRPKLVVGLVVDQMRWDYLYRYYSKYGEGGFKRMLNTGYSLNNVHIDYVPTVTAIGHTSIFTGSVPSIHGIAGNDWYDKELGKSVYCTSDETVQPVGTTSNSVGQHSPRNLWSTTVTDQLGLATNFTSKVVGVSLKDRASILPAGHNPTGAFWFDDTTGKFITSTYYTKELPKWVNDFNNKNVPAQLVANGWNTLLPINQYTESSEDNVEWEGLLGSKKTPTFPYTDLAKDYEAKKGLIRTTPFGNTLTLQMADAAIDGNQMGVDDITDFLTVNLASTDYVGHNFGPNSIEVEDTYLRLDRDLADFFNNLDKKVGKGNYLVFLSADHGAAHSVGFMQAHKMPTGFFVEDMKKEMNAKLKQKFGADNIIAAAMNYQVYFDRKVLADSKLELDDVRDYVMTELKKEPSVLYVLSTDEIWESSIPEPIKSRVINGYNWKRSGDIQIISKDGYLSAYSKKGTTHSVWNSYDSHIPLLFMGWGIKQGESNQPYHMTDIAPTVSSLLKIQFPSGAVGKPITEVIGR
N42G: 498 µM
L326V: 630 µM
T121V: 552 µM
V215G: 598 µM
A195V: 606 µM
T232V: 668 µM
Y380G: 725 µM
V99A: 721 µM
N48G: 629 µM
D446G: 673 µM
F132G: 544 µM
G110V: 687 µM
N199G: 589 µM
T228G: 373 µM
A240V: 670 µM
A235V: 546 µM
E97G: 563 µM
E297V: 153 µM
A78V: 499 µM
V102G: 237 µM
V137G: 568 µM
W198V: 260 µM
W118G: 431 µM
K393V: 651 µM
S170V: 189 µM

Set 3 — target: CCNB3, cyclin fold, Cln2 fusion (human); method: yeast growth competition, sequencing; sample: yeast; setting: strong parent motif; baseline: not given; reading: higher = stronger binding; endpoint: normalised enrichment score; starting sequence: viral docking peptide; KGVKRKLFAEDSS
F8I: 0.147
G2Y: 2.12
F8Q: 0.221
D11S: 2.52
V3W: 0.554
G2R: 2.64
D11L: 1.36
L7N: 0.0766
E10F: 1.64
G2C: 3.29
V3G: 0.429
K4R: 5.31
V3H: 0.617
V3N: 0.219
L7C: 0.176
V3E: 0.287
A9T: 3.18
L7T: 0.563
K6Y: 0.531
S13A: 2.33
F8H: -0.262
S12Q: 2.59
G2T: 2.54
E10I: 1.55
K4F: 1.34

Mixed results
PhoQ, residues 284 288 289 292 302 303 SASVAL — fold induction (PhoP, residues 12 14 15 18 19 TQAIL (Escherichia coli, UniProt P23836); Sort-seq, measured: YFP reporter; E. coli; PhoQ-PhoP variant library, together with: 10 µM Mg2+; baseline: high Mg2+ state, higher = stronger signaling): 3.81

Repeated from above (set 3):
K4R: 5.31
V3H: 0.617
V3N: 0.219
L7C: 0.176
V3E: 0.287
A9T: 3.18
L7T: 0.563
K6Y: 0.531
S13A: 2.33
F8H: -0.262
S12Q: 2.59
